{"data": "Measurements pooled from the literature", "note": "Every numbered part comes from another study and shows a few of its results, in no order. Substitutions count along the parent as printed.", "sequence of UniProt Q13554 (whole entry, looked up)": "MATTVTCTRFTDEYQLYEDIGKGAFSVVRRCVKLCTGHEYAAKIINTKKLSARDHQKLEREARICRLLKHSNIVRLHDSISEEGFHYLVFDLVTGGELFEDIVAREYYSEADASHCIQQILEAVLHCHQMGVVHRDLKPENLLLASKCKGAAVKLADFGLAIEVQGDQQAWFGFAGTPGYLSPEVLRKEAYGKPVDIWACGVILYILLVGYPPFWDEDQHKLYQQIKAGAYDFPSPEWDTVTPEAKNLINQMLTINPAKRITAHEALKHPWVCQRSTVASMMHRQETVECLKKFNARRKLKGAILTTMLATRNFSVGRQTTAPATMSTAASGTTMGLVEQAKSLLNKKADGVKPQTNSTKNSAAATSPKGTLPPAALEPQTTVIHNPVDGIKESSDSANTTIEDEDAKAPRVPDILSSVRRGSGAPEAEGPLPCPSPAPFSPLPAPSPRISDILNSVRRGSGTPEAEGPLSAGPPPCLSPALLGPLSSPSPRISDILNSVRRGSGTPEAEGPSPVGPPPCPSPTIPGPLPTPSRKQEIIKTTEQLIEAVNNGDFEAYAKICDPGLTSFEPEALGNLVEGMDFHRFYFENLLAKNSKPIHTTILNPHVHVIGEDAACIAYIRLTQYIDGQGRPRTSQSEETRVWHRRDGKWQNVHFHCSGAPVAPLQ"}
{"data": "Sample 1", "target": "CCNB3, cyclin fold, Cln2 fusion (human)", "technique": "yeast growth competition, sequencing", "sample": "yeast", "setting": "strong parent motif", "baseline": "not given", "reading": "higher = stronger binding", "parent": "SCAPER docking peptide (human); SNARRSLNFGGST; partner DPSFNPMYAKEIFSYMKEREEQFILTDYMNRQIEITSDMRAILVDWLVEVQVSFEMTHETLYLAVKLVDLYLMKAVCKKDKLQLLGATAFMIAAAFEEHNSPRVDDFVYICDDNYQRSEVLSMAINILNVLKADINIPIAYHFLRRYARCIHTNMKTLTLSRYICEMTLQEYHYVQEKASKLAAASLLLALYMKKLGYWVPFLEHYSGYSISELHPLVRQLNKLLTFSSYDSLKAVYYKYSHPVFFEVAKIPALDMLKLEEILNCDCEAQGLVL"}
{"Substitution": "SNACRSLNFGGST [R4C]", "normalised enrichment score": 0.513}
{"Substitution": "SNARRSLQFGGST [N8Q]", "normalised enrichment score": 0.914}
{"Substitution": "SNARRSLNFSGST [G10S]", "normalised enrichment score": 0.76}
{"Substitution": "SNARRSLNSGGST [F9S]", "normalised enrichment score": -0.0828}
{"Substitution": "SNARRSLNLGGST [F9L]", "normalised enrichment score": 0.382}
{"Substitution": "SNARRSLNFDGST [G10D]", "normalised enrichment score": 1.64}
{"Substitution": "GNARRSLNFGGST [S1G]", "normalised enrichment score": 1.36}
{"Substitution": "SPARRSLNFGGST [N2P]", "normalised enrichment score": 1.38}
{"data": "Sample 2", "target": "JDP2, bZIP domain (human)", "technique": "DHFR protein complementation", "sample": "yeast", "setting": "single substitutions, most at no-binding floor", "baseline": "wild-type JUN-FOS pair", "reading": "higher = stronger binding", "parent": "JUN, bZIP domain (human); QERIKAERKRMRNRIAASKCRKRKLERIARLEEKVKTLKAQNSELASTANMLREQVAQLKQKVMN; partner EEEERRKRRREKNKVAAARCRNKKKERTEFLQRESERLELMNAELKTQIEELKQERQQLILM"}
{"Substitution": "Q55W", "binding fitness [natural log]": 0.114}
{"Substitution": "L38N", "binding fitness [natural log]": -0.139}
{"Substitution": "T48I", "binding fitness [natural log]": 0.204}
{"Substitution": "E44P", "binding fitness [natural log]": -0.305}
{"Substitution": "E33A", "binding fitness [natural log]": 0.282}
{"Substitution": "L52D", "binding fitness [natural log]": -1.02}
{"Substitution": "V56N", "binding fitness [natural log]": 0.21}
{"Substitution": "L31C", "binding fitness [natural log]": 0.0996}
{"data": "Sample 3", "target": "Protein C-ets-1 (ETS1, Homo sapiens, UniProt P14921, residues 1-441, K379A, full length assumed)", "technique": "protein-binding microarray", "molecule type": "double-stranded DNA, one strand shown", "sample": "in vitro", "concentration": "not given", "setting": "k-mer, scored over probes, only values ≥0.25", "reading": "higher = stronger binding", "sequence of UniProt P14921 (whole entry, unmodified, looked up)": "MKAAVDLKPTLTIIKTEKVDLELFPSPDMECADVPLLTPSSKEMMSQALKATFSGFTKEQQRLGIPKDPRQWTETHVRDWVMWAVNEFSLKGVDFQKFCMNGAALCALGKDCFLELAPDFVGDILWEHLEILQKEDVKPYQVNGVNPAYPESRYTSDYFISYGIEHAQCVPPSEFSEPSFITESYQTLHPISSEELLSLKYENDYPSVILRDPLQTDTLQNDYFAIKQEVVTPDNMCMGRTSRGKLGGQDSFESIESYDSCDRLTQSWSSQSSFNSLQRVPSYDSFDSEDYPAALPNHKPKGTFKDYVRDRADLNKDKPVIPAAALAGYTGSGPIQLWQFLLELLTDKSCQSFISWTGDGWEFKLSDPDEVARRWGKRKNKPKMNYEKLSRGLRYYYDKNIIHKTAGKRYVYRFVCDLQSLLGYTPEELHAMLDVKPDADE"}
{"Oligonucleotide": "AACGACGG", "E-score": 0.31}
{"Oligonucleotide": "AACAACAA", "E-score": 0.264}
{"Oligonucleotide": "CACCGGGA", "E-score": 0.425}
{"Oligonucleotide": "ATGATGTA", "E-score": 0.265}
{"Oligonucleotide": "ACCCCCGG", "E-score": 0.422}
{"Oligonucleotide": "GACCTTTA", "E-score": 0.253}
{"Oligonucleotide": "CACTTCCG", "E-score": 0.404}
{"Oligonucleotide": "CCCGGATA", "E-score": 0.27}
{"data": "Further values, each from its own experiment"}
{"Structure (SMILES)": "CN(C)S(=O)(=O)c1ccc2c(c1)/C(=C/c1cc3c([nH]1)CCCC3)C(=O)N2", "target": "Calcium/calmodulin-dependent protein kinase type II subunit beta (CAMK2B, Homo sapiens, UniProt Q13554)", "read-out": "enzyme activity", "mode": "inhibitor", "concentration": "0.5 µM", "baseline": "control", "quantity": "remaining activity", "value": "70%"}
{"note": "Some of these lines once more (sample 2):"}
{"Substitution": "L52D", "binding fitness [natural log]": -1.02}
{"Substitution": "V56N", "binding fitness [natural log]": 0.21}
{"Substitution": "L31C", "binding fitness [natural log]": 0.0996}
